Published values of several laboratories.
Numbered parts are unrelated; each lists some results of a single study. Changes are numbered by the printed parent chain.

Series 1
Target: CCNA1, cyclin fold, Cln2 fusion (human)
Method: yeast growth competition, sequencing
Sample: yeast
Notes: weak parent motif
Reference: not given
Direction: higher = stronger binding
Quantity: normalised enrichment score
Starting sequence: BRCA2 docking peptide (human); PSIKRNLLNEFDR; partner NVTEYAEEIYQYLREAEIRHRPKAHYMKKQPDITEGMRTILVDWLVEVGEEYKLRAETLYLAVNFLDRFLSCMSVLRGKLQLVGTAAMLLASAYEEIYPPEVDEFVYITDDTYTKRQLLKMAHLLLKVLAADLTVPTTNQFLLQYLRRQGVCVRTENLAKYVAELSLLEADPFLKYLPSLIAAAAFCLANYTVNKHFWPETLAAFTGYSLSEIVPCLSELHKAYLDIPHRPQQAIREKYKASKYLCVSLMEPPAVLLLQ
PSTKRNLLNEFDR [I3T]: 0.107
PSIKRWLLNEFDR [N6W]: 0.27
PMIKRNLLNEFDR [S2M]: 0.278
HSIKRNLLNEFDR [P1H]: 0.802
CSIKRNLLNEFDR [P1C]: 0.739
PSIKRNLLNEFDT [R13T]: 0.675
PCIKRNLLNEFDR [S2C]: 0.147
PSIKRNLYNEFDR [L8Y]: 0.22
PSIKYNLLNEFDR [R5Y]: 0.145
PSIKRNLINEFDR [L8I]: 0.558
PSIKRNLLCEFDR [N9C]: 0.196
PSIKRNLLNEFDY [R13Y]: 0.624
KSIKRNLLNEFDR [P1K]: 0.514
PSMKRNLLNEFDR [I3M]: 0.228
PSIKRNLLKEFDR [N9K]: 0.784
PSIMRNLLNEFDR [K4M]: 0.291
WSIKRNLLNEFDR [P1W]: 0.658
PSIKRLLLNEFDR [N6L]: 0.167
PSIKRNLLDEFDR [N9D]: 0.53
PSIKRNVLNEFDR [L7V]: -0.227
PSIKRNLLNEFDK [R13K]: 0.242
GSIKRNLLNEFDR [P1G]: 0.595
PSIKRNLLNEFDG [R13G]: 0.532
PSIKRNLLNENDR [F11N]: 0.161
PSRKRNLLNEFDR [I3R]: 0.229

Series 2
Target: Histone acetyltransferase KAT6A, winged helix 1, GST fusion (KAT6A, Homo sapiens, UniProt Q92794, residues 1-85)
Method: protein binding microarray
Form: double-stranded DNA, one strand shown
Sample: in vitro
Concentration: not given
Notes: 8-mer, flanks averaged, mean of 2 arrays, mostly near background
Reference: not given
Direction: higher = stronger binding
Quantity: E-score
Target sequence (chain): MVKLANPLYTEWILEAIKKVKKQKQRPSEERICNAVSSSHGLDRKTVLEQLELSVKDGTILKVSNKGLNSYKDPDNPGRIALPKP
CAAGTTAC: 0.016
ATGCACGC: 0.0821
ACTCGGCG: 0.273
AAATCCAC: -0.287
CGCTACCG: 0.391
CAATCCGG: 0.141
TGCGTAAA: 0.189
GAGTAGAC: -0.00301
ACCCCTGA: -0.0963
GGACATCC: 0.165
AAGCACAA: -0.362
CAAGGTCA: -0.0865
CTTTAATC: -0.0115
AAACCTAT: 0.00619
ACGAGTAC: -0.154
ACTCTTCG: -0.00044
AACAAAGG: -0.116
GCGTTTCC: 0.211
GCACGACC: -0.0957

Series 3
Target: Interferon regulatory factor 7, full length, phosphomimetic (IRF7, Homo sapiens, UniProt Q92985, residues 1-503, S101K/S471D/S472D/S475D/S476D/S477D/S483D/S484D/S487D)
Method: protein-binding microarray
Form: double-stranded DNA, one strand shown
Sample: in vitro
Concentration: 250 nM
Notes: 60-bp whole probe
Together with: salmon DNA 0.4 mg/ml
Reference: random background probes
Direction: higher = stronger binding
Quantity: log fluorescence
All sequences stand within: GCCTAGCAC … GTCTTGATTCGCTTGACGCTGCTG
Construct (chain): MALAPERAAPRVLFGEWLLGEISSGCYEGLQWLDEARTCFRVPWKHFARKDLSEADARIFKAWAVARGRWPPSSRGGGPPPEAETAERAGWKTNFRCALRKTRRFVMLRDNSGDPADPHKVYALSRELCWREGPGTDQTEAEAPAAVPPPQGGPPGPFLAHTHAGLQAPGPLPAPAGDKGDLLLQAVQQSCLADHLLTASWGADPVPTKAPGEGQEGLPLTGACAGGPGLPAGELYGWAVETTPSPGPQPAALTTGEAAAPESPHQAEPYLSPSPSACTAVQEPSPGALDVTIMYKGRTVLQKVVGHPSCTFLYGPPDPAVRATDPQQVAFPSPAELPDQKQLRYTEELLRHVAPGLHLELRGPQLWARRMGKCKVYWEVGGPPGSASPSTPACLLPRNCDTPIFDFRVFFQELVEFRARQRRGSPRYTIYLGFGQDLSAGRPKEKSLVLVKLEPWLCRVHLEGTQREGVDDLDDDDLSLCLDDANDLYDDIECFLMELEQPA
GACGGTTTCCTTATCCTGTCGTGCTAG: 3.94 z-score
TCATCTCTGGCCCTCCTACTGTGCTAG: 0.196 z-score
CCAAGTCTTGTTTTACAATTGTGCTAG: 2.86 z-score
AACGGTTTCGGTATCGGGACGTGCTAG: 10.6 z-score
TCATCCCTCGGGTTGCGGACTGTGCTA: 0.586 z-score
GACGAACTGAGTCTCGCGACGTGCTAG: 0.0151 z-score
TTAGGTAGCCTTTTCCTTTAGTGCTAG: -0.241 z-score
TTAGAGCTCAGTCTCGATTAGTGCTAG: 0.704 z-score
CAGCCTCTACCTCCTGGGCTCGTGCTA: -0.121 z-score
GACGATCTCAGTCCCGAGACGTGCTAG: 0.166 z-score
TTAGGAATCGGGACTGGGTTAGTGCTA: 0.0201 z-score
TTAGGTTTCGGGTTTCCGTTAGTGCTA: 11.7 z-score
TTAGGTATCCTTATCCTTAAGTGCTAG: 0.928 z-score
GACGGACTGGGGCTTCGGGACGTGCTA: -0.651 z-score
TTAGATCTCAGAGTGGATTAGTGCTAG: 0.0337 z-score
GAAGAACTGAGTCTCGAGACGTGCTAG: 0.0239 z-score
TTAGAACTGGGGACTGGATTTGTGCTA: -0.181 z-score
GACGGTATTGGGACTGGGGACGTGCTA: -0.354 z-score
TTAGGACTGCGGTATCGGTTAGTGCTA: 0.0758 z-score

Mixed results
PhoQ, residues 284 288 289 292 302 303 SVHLDV
fold induction (PhoP, residues 12 14 15 18 19 AQALL (Escherichia coli, UniProt P23836); Sort-seq, item: YFP reporter; E. coli; PhoQ-PhoP variant library, together with: 10 µM Mg2+; reference: high Mg2+ state, higher = stronger signaling): 7.71

Repeated from above (series 2):
CAAGTTAC: 0.016
ATGCACGC: 0.0821
ACTCGGCG: 0.273
AAATCCAC: -0.287
CGCTACCG: 0.391
